Measurements of several laboratories.
Parts stem from different laboratories: compare values within a part only. Positions count from the first letter of the parent shown.

Series 1 — method: DHFR PCA, deep sequencing; medium: yeast; with: (+)-ABA 17 µM; reference: wild-type fitted maximum; reading: higher = stronger binding
Target: ABI1, truncated, D143A, DHFR fusion (Arabidopsis thaliana)
Setting: methotrexate growth selection, single substitutions
Parent: PYL1, truncated, DHFR fusion (Arabidopsis thaliana); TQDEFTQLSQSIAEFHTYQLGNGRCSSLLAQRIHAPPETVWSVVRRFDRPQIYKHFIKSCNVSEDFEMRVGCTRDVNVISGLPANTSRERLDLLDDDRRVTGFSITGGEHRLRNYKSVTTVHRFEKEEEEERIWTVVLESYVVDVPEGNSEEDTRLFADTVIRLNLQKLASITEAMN
`N165G`: “relative binding score” -1.5%.
`G21R` — result for “relative binding score”: 82.3%.
`A158L`: “relative binding score” 96%.
`G107M` — result for “relative binding score”: 2.65%.
Under “relative binding score”, `S87P` is recorded as 7.71%.
Under “relative binding score”, `F15K` is recorded as 9.28%.
Under “relative binding score”, `K168W` is recorded as 77.9%.
`V121N`: “relative binding score” 2.58%.
`V143D` — result for “relative binding score”: -13.7%.
For `Y18M`, “relative binding score” read 53.4%.
Under “relative binding score”, `V43Q` is recorded as 31.2%.
`I57A`: “relative binding score” 12.9%.
For `E4F`, “relative binding score” read 59.9%.
`R132G`: “relative binding score” 107%.
Under “relative binding score”, `L112S` is recorded as 1.95%.
For `D92N`, “relative binding score” read 42%.
For `V40H`, “relative binding score” read -11.8%.
`E130A`: “relative binding score” 85.7%.
`S9A`: “relative binding score” 85.5%.
For `S117A`, “relative binding score” read 60.8%.
`G23S`: “relative binding score” 67.5%.
For `D96V`, “relative binding score” read 10.6%.
Under “relative binding score”, `S26A` is recorded as 78.6%.
`P83Q`: “relative binding score” 22%.
`E38A` — result for “relative binding score”: 71%.

Series 2 — method: RNA Bind-n-Seq; molecule type: RNA; medium: in vitro; concentration: 365 nM; reference: no-protein control; reading: higher = stronger binding
Target: RNA binding protein fox-1 homolog 2, RRM domain, GST-SBP tag (RBFOX2, Homo sapiens, UniProt O43251-10, residues 100-194)
Setting: natural RNA segment, single round, ends assumed
Construct (chain): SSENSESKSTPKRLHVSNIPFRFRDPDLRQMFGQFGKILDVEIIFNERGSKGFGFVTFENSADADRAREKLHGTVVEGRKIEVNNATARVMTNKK
`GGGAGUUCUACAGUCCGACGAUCAUUUAGGCUUGACUGUUUUAAAACACCAUAAUGAAUGUAUAAUUAAUUUAUGUUAAAGUAUUAACCCUUUGUCACAAAGGAAUGGUAAUGUGAUUGGCUGCCUGUUAGCCUGGAAUUCUCGGGUGCCAA`: “RBNS enrichment (R)” 1.62.
`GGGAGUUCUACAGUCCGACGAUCACACUGAAAAAUCUAAGUGAUAUAAAUCAGAUUCUUCUCUCUCAAUUUUAUCCCUCACCUGUAGCAGCCAGUCCCGUUUCAUUUAGUCAUGUGACCACUCUGUCUUGUGUUGGAAUUCUCGGGUGCCAA`: “RBNS enrichment (R)” 0.283.
For `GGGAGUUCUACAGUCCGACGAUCUGCAUUAUAAUUUUAUCCUAACCUCCAAAGAUAUUUGCACUGCUUUUAAUUACUGCUGUAUAUUUGUUGAUUUUGGAGUUACAACUGUGGUGAUAGAAAAUUGAGUUGAUUGGAAUUCUCGGGUGCCAA`, “RBNS enrichment (R)” read 0.36.
Under “RBNS enrichment (R)”, `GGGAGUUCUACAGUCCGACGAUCUGCUUUAUGUGGGCAUGAGAUGUCCCGUGAGGUCAUAGCUCCUUCUUUAGGAACUGCCUGUCCAUGAGAUGUCCCGUGAGGUCAUAGCUCCCUCUUUAGGGACUGUCUGUUGGAAUUCUCGGGUGCCAA` is recorded as 0.273.
`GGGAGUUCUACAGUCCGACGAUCAGAUAUAUUUAAAUAUUUUAGAGAAAUUUAAGUUACUCCUUAUGAAAUGUUUAAUUUCAGUUACUGUGAAUUCUUCUAAUCAGUUCGUUCUUUGAUUUUAAAAAGAAAAAUGGAAUUCUCGGGUGCCAA`: “RBNS enrichment (R)” 0.886.
`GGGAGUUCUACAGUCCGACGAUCAGGACGUGGAGAGUGGCAGUGACGAAGGUCAUUUGUUUUCAGGGAGGUAGGGUUUAAAGACCCCCAGUGGGAGCAUUUAGAUGGCAGGCGGCUGCAAGGAGUCUGCAGUGUGGAAUUCUCGGGUGCCAA` — result for “RBNS enrichment (R)”: 0.637.
`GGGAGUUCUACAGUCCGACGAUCCUUUGUCUCAUGAAACUACCAAAAAAGAAUGUCACCUUUUUUCUUUGUUGUGGAACCAGAGAUUAUAAAAAGGAAAAAAAAGGAAAAAAAAAAGUUGUCUUGUUGUAUUUUGGAAUUCUCGGGUGCCAA`: “RBNS enrichment (R)” 3.44.
`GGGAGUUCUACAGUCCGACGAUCUGGCCAUUUGCCUGGCUAGUUGCUGUCUACAAGGGAGCAUCAAAACAUCACUACUUCUUAUGUAACUUCUUCCAGCCAGUGCUUUUAUUGUUCGUUUUAGUUUACUGGGGUGGAAUUCUCGGGUGCCAA`: “RBNS enrichment (R)” 0.444.

Series 3 — method: RNA Bind-n-Seq; molecule type: RNA; medium: in vitro; concentration: 200 nM; setting: whole 134-nt RNA, ends assumed; with: 150 mM LiCl; reference: input library; reading: higher = stronger binding; all molecules: 7-deaza-guanosine replaces G
Target: Ras GTPase-activating protein-binding protein 1, full length (G3BP1, Homo sapiens, UniProt Q13283)
Chain of UniProt Q13283 (whole entry, looked up): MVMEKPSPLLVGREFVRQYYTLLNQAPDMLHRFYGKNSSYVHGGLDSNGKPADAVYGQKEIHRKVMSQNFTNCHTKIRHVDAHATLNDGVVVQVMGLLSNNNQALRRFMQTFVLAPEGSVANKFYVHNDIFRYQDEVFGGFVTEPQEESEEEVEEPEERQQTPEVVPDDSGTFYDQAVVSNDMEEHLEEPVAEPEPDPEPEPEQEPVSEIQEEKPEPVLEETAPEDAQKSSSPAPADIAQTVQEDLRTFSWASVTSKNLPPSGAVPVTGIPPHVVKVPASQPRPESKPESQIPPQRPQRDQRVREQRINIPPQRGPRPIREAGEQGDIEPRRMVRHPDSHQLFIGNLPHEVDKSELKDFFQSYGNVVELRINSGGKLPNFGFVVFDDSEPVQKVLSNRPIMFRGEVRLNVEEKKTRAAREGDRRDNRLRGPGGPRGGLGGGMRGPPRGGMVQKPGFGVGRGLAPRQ
`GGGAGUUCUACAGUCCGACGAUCACCAUGCAGGUGGGCAUCUUUGGGAAGUGGGGCAAGGGGGGGAUAGGGAGGGGGGUAACACUUUUGGAACAGGUGGUCCCAGGUCGUUUCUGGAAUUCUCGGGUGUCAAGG` has a log2 enrichment of -0.0875.
For `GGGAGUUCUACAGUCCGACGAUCGCAGGAAGUAAAAACAAAUGGAAAUGCUUCGGAUAGUGGCAGGGGUGGGGGUUGCUAAGGAAAGGGUGGGAUGGGAGUGGGUAAAGCGUUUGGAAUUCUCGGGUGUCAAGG`, the log2 enrichment was -0.0228.
The log2 enrichment of `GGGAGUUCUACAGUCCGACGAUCCUCAAGUCCUGUGCUACACAUCGUAUGUACCGAAUCGGUUUGGUUUUUGGUGGAAAGUAUUAUGUUACGCCGUUCGGAUCUGCACUUCCAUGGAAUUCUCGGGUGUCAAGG` is reported as 0.583.
The log2 enrichment of `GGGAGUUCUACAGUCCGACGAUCAGUCCUGUGCUACACAUCGUAUGUACCGAAUCGGGAAAGGGUUUUUUUGGGUUUGGGAAAGUAUUAUGUUACGCCGUUCGGAUCUGCACUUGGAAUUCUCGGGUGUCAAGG` is reported as -1.72.
For `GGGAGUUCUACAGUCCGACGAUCUCAAGUCCUGUGCUACACAUCGUAUGUACCGAAUCGGAAGGGGAAGGGAAGGGGAAAGUAUUAUGUUACGCCGUUCGGAUCUGCACUUCCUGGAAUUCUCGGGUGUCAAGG`, the log2 enrichment was -0.243.
With `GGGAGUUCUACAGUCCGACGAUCCCUCAAGUCCUGUGCUACACAUCGUAUGUACCGAAUCGGUUGGGUUGGGUUGGAAAGUAUUAUGUUACGCCGUUCGGAUCUGCACUUCCAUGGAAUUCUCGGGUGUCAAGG` the log2 enrichment was 0.102.
`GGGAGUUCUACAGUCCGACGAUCUCCUGUGCUACACAUCGUAUGUACCGAAUCGGGUUUUUGGGGUUUUUGGGGUUUUUGGGAAAGUAUUAUGUUACGCCGUUCGGAUCUGCAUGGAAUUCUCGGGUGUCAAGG` has a log2 enrichment of 0.894.
With `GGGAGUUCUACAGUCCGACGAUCUGGCCCUGGUGGCAUGCGGGGAGGAAGAGGUGGCCUCAUGGAUCGUGGUGGUCCCGGUGGAUUGUUCAGAGGUGGCCGUGGUGGAGACAGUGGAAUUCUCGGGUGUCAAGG` the log2 enrichment was 0.488.

Series 4 — organism: Saccharomyces cerevisiae; observed: growth after mating arrest; method: competitive growth deep sequencing; molecule type: peptide; setting: strain without Cln2 fusion; reading: direction not given
With `KRCATPVIIDEILPSK` the enrichment score was -0.19.
With `VKRLNFRSEEME` the enrichment score was -0.845.
The enrichment score of `RTEALEQGGLPKKLIF` is reported as 0.475.
The enrichment score of `GTPKRCLDLSNLSSGE` is reported as 0.226.
`YLYLLLTQSLWCRV` has an enrichment score of -0.392.
`GPVKLEFDVSDGAT` gave an enrichment score of 0.147.
The enrichment score of `PHKTFRKLRLFDTPHT` is reported as -0.209.
`RQVRRDLFAF` has an enrichment score of -0.498.
`EPRNLLSLFEDTLDPT` gave an enrichment score of 0.0286.
The enrichment score of `AKRSLGFLPQPVPL` is reported as -0.862.

Other studies, line by line
With `PhoQ, residues 284 288 289 292 302 303 SLANKL` the fold induction was 2.67 (PhoP, residues 12 14 15 18 19 LHHSG (Escherichia coli, UniProt P23836); Sort-seq, item: YFP reporter; E. coli; PhoQ-PhoP variant library, with: 10 µM Mg2+; reference: high Mg2+ state, higher = stronger signaling).

Some of these lines once more (series 4):
The enrichment score of `PHKTFRKLRLFDTPHT` is reported as -0.209.
`RQVRRDLFAF` has an enrichment score of -0.498.
With `VKRLNFRSEEME` the enrichment score was -0.845.
`GPVKLEFDVSDGAT` gave an enrichment score of 0.147.
The enrichment score of `AKRSLGFLPQPVPL` is reported as -0.862.
The enrichment score of `GTPKRCLDLSNLSSGE` is reported as 0.226.
`YLYLLLTQSLWCRV` has an enrichment score of -0.392.
The enrichment score of `RTEALEQGGLPKKLIF` is reported as 0.475.
With `KRCATPVIIDEILPSK` the enrichment score was -0.19.
